Measurements collected from several papers.
Lines come from different studies, so protocols differ. Values joined by “and” are separate records of one study, mostly repeats; a detail may differ. Numbers after ± are the reported error.
Sequence of UniProt Q05513 (whole entry, looked up): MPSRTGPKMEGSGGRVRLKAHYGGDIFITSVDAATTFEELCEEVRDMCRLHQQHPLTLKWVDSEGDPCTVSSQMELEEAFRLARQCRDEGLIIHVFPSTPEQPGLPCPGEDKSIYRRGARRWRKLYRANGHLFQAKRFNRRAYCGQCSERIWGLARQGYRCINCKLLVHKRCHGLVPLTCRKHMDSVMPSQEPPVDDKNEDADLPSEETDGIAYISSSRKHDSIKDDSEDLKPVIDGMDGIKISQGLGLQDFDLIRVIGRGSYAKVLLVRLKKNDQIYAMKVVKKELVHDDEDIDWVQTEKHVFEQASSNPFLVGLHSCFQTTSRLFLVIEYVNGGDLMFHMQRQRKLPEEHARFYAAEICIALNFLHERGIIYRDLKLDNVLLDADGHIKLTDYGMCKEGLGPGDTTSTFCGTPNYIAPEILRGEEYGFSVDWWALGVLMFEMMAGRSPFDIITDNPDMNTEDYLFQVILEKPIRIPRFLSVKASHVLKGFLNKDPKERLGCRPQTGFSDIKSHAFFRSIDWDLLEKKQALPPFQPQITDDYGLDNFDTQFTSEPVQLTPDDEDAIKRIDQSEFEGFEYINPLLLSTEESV

The CC50 of `O=C(C[Se]C(=O)c1ccccc1Nc1ccccc1)Nc1cccc(C(F)(F)F)c1` is reported as 9.73 µM (NCI60 leukaemia subpanel; NCI60 five-dose screen).
`Cc1cc(C(=O)Nc2nc3cccc(C)c3n2[C@H]2CCCCN(C(=O)/C=C/CN(C)C)C2)ccn1` gave a multinucleated cells of 10.6% (Trypanosoma brucei; propidium iodide flow cytometry; bloodstream form; concentration not given, 16 h).
Under “serum total bilirubin”, `O=C1NC2(CC2)COc2ncc(F)cc2[C@H]2COCCN2c2ccn3ncc1c3n2` is recorded as 0.9 ± 0.4 µmol/L (Sprague-Dawley rat, female, serum; oral, 20 mg/kg/day, end of treatment, 4-week subacute toxicity).
The GI50 of `CC(C)Cc1ccc(C(C)C(=O)[O-])cc1.CC(C)Cc1ccc(C(C)C(=O)[O-])cc1.[Cu+2].c1ccncc1.c1ccncc1` (stereo not drawn) is reported as 24 µM (OVCAR-3; cell growth or viability, MTT; 48 h).
The SILAC ratio of `CC(C)CC(O)(CC(C)C)c1cn(C(=O)N2CCCC2)nn1` is reported as 1.13 and 1.07 (mouse T-cells; protein abundance, unenriched SILAC proteomics, measured: Niban; 1 nM, 6 h, single tryptic peptide; reference: DMSO).
With `CC(C)C[C@H](NC(=O)[C@H](CC(=O)O)NC(=O)CNC(=O)[C@@H](N)CCCNC(=N)N)C(=O)N[C@@H](C)C(=O)N[C@H](C(=O)N[C@@H](CC(C)C)C(=O)N[C@@H](CCCNC(=N)N)C(=O)N[C@@H](CCC(N)=O)C(=O)N[C@@H](CC(C)C)C(=O)N[C@@H](C)C(=O)N[C@@H](CCC(N)=O)C(=O)N[C@@H](CCC(=O)O)C(=O)N[C@@H](CC(=O)O)C(=O)NCC(=O)N[C@H](C(=O)N[C@H](C(=O)NCC(=O)N[C@H](C(=O)N[C@@H](CCCNC(=N)N)C(=O)NCCOCCOCCOCCOCCOCCOCCOCCOCCOCCOCCOCCOCCC(=O)N[C@@H](CS)C(N)=O)C(C)C)C(C)C)C(C)C)[C@@H](C)O` the selectivity ratio was 47 ± 16 (PC-9; phage binding; reference: targeting over control phage).
For `CC[C@H](C)[C@H](NC(=O)[C@H](C)NC(=O)CNC(=O)[C@H](Cc1ccccc1)NC(=O)[C@H](CC(N)=O)NC(=O)[C@H](CC(N)=O)NC(=O)[C@H](CO)NC(=O)[C@H](CO)NC(=O)[C@H](Cc1c[nH]cn1)NC(=O)[C@@H](NC(=O)[C@H](CC(C)C)NC(=O)[C@H](Cc1ccccc1)NC(=O)[C@H](CC(N)=O)NC(=O)[C@H](C)NC(=O)[C@H](CC(C)C)NC(=O)[C@H](CCCNC(=N)N)NC(=O)[C@H](CCC(N)=O)NC(=O)[C@@H](NC(=O)[C@H](C)NC(=O)[C@@H]1CSSC[C@H](NC(=O)[C@@H](N)CCCCN)C(=O)N[C@@H](CC(N)=O)C(=O)N[C@@H]([C@@H](C)O)C(=O)N[C@@H](C)C(=O)N[C@@H]([C@@H](C)O)C(=O)N1)[C@@H](C)O)C(C)C)C(=O)N[C@@H](CC(C)C)C(=O)N[C@@H](CO)C(=O)N[C@@H](CO)C(=O)N[C@H](C(=O)N[C@@H](CC(N)=O)C(=O)N[C@H](C(=O)NCC(=O)N[C@@H](CO)C(=O)N[C@@H](CC(N)=O)C(=O)N[C@H](C(=O)N[C@@H](Cc1ccc(O)cc1)C(N)=O)[C@@H](C)O)C(C)C)[C@@H](C)O`, “Pearson colocalization coefficient” read less than 0.3 (RIN-m5F; colocalization microscopy, measured: HSP70 and HSP90; 10 µM, 24 h).
With `CC1CCC2C(C)C(OC(=O)CCC(=O)N3CCC(Nc4ccc(S(=O)(=O)NC(=O)c5ccc(N6CCN(CC7=C(c8ccc(Cl)cc8)CC(C)(C)CC7)CC6)cc5Oc5cnc6[nH]ccc6c5)cc4[N+](=O)[O-])CC3)OC3OC4(C)CCC1C32OO4` (stereo not drawn) the necrotic cells was 0.3% (K562; annexin V/PI flow cytometry, measured: annexin V-/PI+; 3.2 µM, 24 h).
`Cc1cc(Oc2nc(N3CC[C@@H](c4ccncc4)C3)ncc2F)[nH]n1` gave an IC50 of 77.6 µM (brain cancer cell lines; cell proliferation; average over lines).
`CSCC[C@H](NC(=O)[C@H](CCC(=O)O)NC(=O)[C@H](CS)NC(=O)[C@H](Cc1ccccc1)NC(=O)[C@H](CC(N)=O)NC(=O)[C@@H]1CCCN1C(=O)[C@@H]1CCCN1C(=O)[C@H](CC(N)=O)NC(=O)[C@H](CC(C)C)NC(=O)[C@H](CCSC)NC(=O)[C@H](CC(C)C)NC(=O)[C@H](CS)NC(=O)[C@H](CCC(N)=O)NC(=O)CNC(=O)[C@H](Cc1ccc(O)cc1)NC(=O)[C@@H](NC(=O)[C@@H](NC(=O)[C@@H]1CCCN1C(=O)[C@@H](N)CS)C(C)C)[C@@H](C)O)C(=O)N[C@@H](CC(=O)O)C(=O)NCC(=O)N[C@@H](CCC(N)=O)C(=O)N[C@@H](CS)C(=O)N[C@@H](CCCCN)C(=O)O` has a p-ERK/ERK ratio of 0.61 ± 0.06 (RAW264.7; Western blot; concentration not given, 6 h pretreatment, added: LPS 30 min).
For `CS(C)(=O)=Nc1ccc(-c2ccc(-c3nc4cc(O[C@@H]5CO[C@H]6[C@@H]5OC[C@H]6O)[nH]c4cc3F)cc2)cc1`, the inhibition was 17% (PRKCZ (Homo sapiens, UniProt Q05513); enzyme activity, inhibitor; 10 µM).
The relative abundance of `COc1ccccc1-c1n[nH]c2nc(N[C@H]3CC[C@H](NS(=O)(=O)CC(C)C)CC3)ncc12` is reported as 0.99 (bead binding, competition bead pull-down, measured: LINJ.35.0070; Leishmania donovani extract; 10 µM; reference: vehicle).
The inhibition of `N[C@H](C(=O)N1CCCC1)C1CCN(c2nccc3c(-c4ncc(Cl)cc4Cl)cccc23)CC1` is reported as -6.93% and -3.58% and 8.2% and 8.14% (human neutrophils; protein citrullination, inhibitor, flow cytometry, measured: citrullinated histone H3; 316 pM, added: ionomycin).
With `COc1ccccc1-c1n[nH]c2nc(NC3CCN(C(=O)Cc4ccc(F)cc4F)CC3)ncc12` the relative abundance was 1.14 (bead binding, competition bead pull-down, measured: LINJ.35.0070; Leishmania donovani extract; 10 µM; reference: vehicle).
With `CC(C)(C)C(=O)OCOP(=O)(OCOC(=O)C(C)(C)C)C1CCCN(O)C1=O` (stereo not drawn) the log TGI was -4.2 log M (OVCAR-5).
